Results collected from several papers.
Numbered parts are unrelated; each lists some results of a single study. Positions count from the first letter of the parent shown.

Block 1
Target: Sal-like protein 4, full length isoform B (SALL4, Homo sapiens, UniProt Q9UJQ4-2, residues 1-616)
Technique: universal PBM
Molecule type: double-stranded DNA, one strand shown
Matrix: in vitro
Concentration: not given
Setting: 8-mer, flanks averaged, mean of replicates
Direction: higher = stronger binding
| Oligonucleotide | E-score |
| --- | --- |
| AGCACAAA | 0.108 |
| ATCATAGA | 0.255 |
| ACACCTCG | -0.0353 |
| AGCGAATG | -0.199 |
| CTCTCTTC | -0.2 |
| ACCTGCGG | -0.283 |
| ATGTAAGA | 0.244 |
| GCCTCACA | -0.0223 |
| TATTTGCA | 0.28 |
| CAATCTAG | 0.119 |
| GGCATGCA | -0.0482 |
| AGTCTCAT | 0.141 |

Block 2
Target: CCNE1, cyclin fold, Cln2 fusion (human)
Technique: yeast growth competition, sequencing
Matrix: yeast
Setting: strong parent motif
Reference: not given
Direction: higher = stronger binding
Parent: RBL1 docking peptide (human); GSAKRRLFGEDPP; partner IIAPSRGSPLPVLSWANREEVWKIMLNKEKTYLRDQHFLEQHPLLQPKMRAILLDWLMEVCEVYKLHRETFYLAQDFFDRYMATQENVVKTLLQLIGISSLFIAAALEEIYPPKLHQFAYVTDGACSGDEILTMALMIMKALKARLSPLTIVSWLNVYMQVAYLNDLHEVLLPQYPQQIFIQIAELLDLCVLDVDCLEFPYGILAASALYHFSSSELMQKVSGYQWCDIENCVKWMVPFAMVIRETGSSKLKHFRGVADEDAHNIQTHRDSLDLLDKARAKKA
| Substitution | normalised enrichment score |
| --- | --- |
| GSAKRRLFGEPPP [D11P] | 4.47 |
| GSAKGRLFGEDPP [R5G] | 0.0659 |
| GFAKRRLFGEDPP [S2F] | 4.76 |
| GSAERRLFGEDPP [K4E] | 0.618 |
| GSAKRRLFGEGPP [D11G] | 5.48 |
| GSAKRYLFGEDPP [R6Y] | 2.63 |
| GSAKRRLFQEDPP [G9Q] | 6.93 |
| GWAKRRLFGEDPP [S2W] | 3.39 |
| GSAKRRLFGEDPN [P13N] | 6.15 |
| GSAKRRLFMEDPP [G9M] | 6.82 |

Block 3
Target: ATF3, bZIP domain (human)
Technique: DHFR protein complementation
Matrix: yeast
Setting: single substitutions, most at no-binding floor
Reference: wild-type JUN-FOS pair
Direction: higher = stronger binding
Parent: JUN, bZIP domain (human); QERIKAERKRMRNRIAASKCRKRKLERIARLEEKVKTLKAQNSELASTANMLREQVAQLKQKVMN; partner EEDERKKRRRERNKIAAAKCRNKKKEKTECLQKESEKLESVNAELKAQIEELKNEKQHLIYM
| Substitution | binding fitness [natural log] |
| --- | --- |
| T37Q | 0.0395 |
| T37Y | -0.0929 |
| A29Y | -0.278 |
| L45W | -0.924 |
| E44N | -0.362 |

Single results of other studies
| Substance | target | assay | system | setting | scale | quantity | result |
| --- | --- | --- | --- | --- | --- | --- | --- |
| PhoQ, residues 284 288 289 292 302 303 NLMGRA | PhoP, residues 12 14 15 18 19 HLGGL (Escherichia coli, UniProt P23836) | Sort-seq, measured: YFP reporter | E. coli | PhoQ-PhoP variant library, with: 10 µM Mg2+ | reference: high Mg2+ state, higher = stronger signaling | fold induction | 2.86 |

For quick reference, copied from above (block 2):
| Substitution | normalised enrichment score |
| --- | --- |
| GSAKRRLFGEPPP [D11P] | 4.47 |
| GSAKRYLFGEDPP [R6Y] | 2.63 |
